Published values of several laboratories.
Compare with care: the assays were run in different laboratories. ± gives the spread as reported. ≈ marks a conversion by molar mass, not a printed value.
Cell line: MCF7

CC(=O)N[C@H](CCCNC(=N)N)C(=O)N[C@H](CCCCN)C(=O)N[C@H](Cc1ccc(O)cc1)C(=O)N[C@H](CS)C(N)=O
inhibition (colony formation; 50 nM, 24 h): ≤ 50%

CCOC(=O)C1=C(COCc2cn(CCN3C(=O)C(=O)c4cc(Cl)ccc43)nn2)N=C2Sc3ccccc3N2C1c1cccc(Cl)c1 (stereo not drawn)
viability (MTT; 100 µM, 48 h): ~52%

C[C@@H](N)[C@H](O)CCCCCCCC(=O)CCCCCCCCCCCCCC[C@@H](O[C@@H]1O[C@H](CO)[C@@H](O)[C@H](O)[C@H]1O)[C@@H](N)CO
selectivity ratio (reference: IC50 MCF-12A over IC50 MCF7): 3.4

CC(C)C[C@@H](NC(=O)[C@H](C)NC(=O)CNC(=O)[C@@H](NC=O)C(C)C)C(=O)N[C@@H](C)C(=O)N[C@@H](C(=O)N[C@H](C(=O)N[C@@H](C(=O)N[C@@H](Cc1c[nH]c2ccccc12)C(=O)N[C@H](CC(C)C)C(=O)N[C@@H](Cc1c[nH]c2ccccc12)C(=O)N[C@H](CC(C)C)C(=O)N[C@@H](Cc1c[nH]c2ccccc12)C(=O)N[C@H](CC(C)C)C(=O)N[C@@H](Cc1c[nH]c2ccccc12)C(=O)NCCO)C(C)C)C(C)C)C(C)C
LC50 (sulforhodamine B; 48 h): > 5 µM

C[C@H](N)[C@@H](CCCCCCCCCCCCCCC(=O)CCCCCCC[C@@H](O)[C@@H](C)N)O[C@@H]1O[C@H](CO)[C@H](O)[C@H](O)[C@H]1O
selectivity ratio (reference: IC50 MCF-12A over IC50 MCF7): 3.2

Cc1cc(=O)[nH]c2c(/N=N/c3ccccc3)c(O)c(/N=N/c3ccccc3)cc12
selectivity index (cytotoxicity, MTT; reference: MCF7 over MCF-10A): 5.11

O=C1c2ccccc2C(=O)c2c1ccc1c2C(C(=O)Nc2ccc(Br)cc2)C(=O)C1c1ccccc1 (stereo not drawn)
selectivity index (reference: Vero IC50 over MCF7 IC50): 1.45

COc1cc(/C=C(\C#N)C(=O)Nc2nnc(C(F)(F)F)s2)ccc1OC(=O)N1CCN(C(=O)CCCC(=O)NCCCC[C@@H]2NC(=O)[C@@H](Cc3ccc(O)cc3)NC(=O)[C@H](CC(=O)O)NC(=O)CNC(=O)[C@H](CCCNC(=N)N)NC2=O)CC1
GI50 (cell growth or viability, MTT): 50 µM

O=C1c2ccccc2C(=O)c2c1ccc1c2C(C(=O)Nc2ccccc2)C(=O)C1c1ccccc1 (stereo not drawn)
CC50 (cytotoxicity): 46.4 ± 0.05 µg/mL (≈ 101 µM)

C=CC[P](c1ccccc1)(c1ccccc1)[Pt]([S]c1ccccn1)([S]c1ccccn1)[P](CC=C)(c1ccccc1)c1ccccc1
early apoptotic cells (annexin V/7-AAD flow cytometry; 10 µM): 62.9%

Cc1nn(-c2ccccc2)c2c1C(c1ccc3c(c1)OCO3)N(C(=O)c1ccncc1)N2 (stereo not drawn)
CC50 (cytotoxicity, MTT; 72 h): 69.12 ± 0.11 µg/mL (≈ 162 µM)

Cc1ccc(NC(=O)C2C(=O)C(c3ccccc3)c3ccc4c(c32)C(=O)c2ccccc2C4=O)cc1 (stereo not drawn)
CC50 (cytotoxicity): 82.34 ± 0.16 µg/mL (≈ 175 µM)

CC(=O)N1CCCC[C@H]1C(=O)NC(C)(C)C(=O)N1CCCC[C@H]1C(=O)NC(C)(C)C(=O)NC(C)(C)C(=O)N[C@@H](CC(C)C)C(=O)NC[C@H](C)C(=O)NCC(=O)NC(C)(C)C(=O)NC(C)(C)C(=O)N1CCCC[C@H]1C(=O)NC(C)(C)C(=O)NCC(=O)N[C@@H](CC(C)C)C(=O)NC(C)(C)C(=O)N[C@@H](CC(C)C)C[N+]1=C2CCCN2CCC1
GI50 (cell growth or viability, SRB; 48 h): 0.014 µM

O=C1c2ccccc2C(=O)c2c1ccc1c2C(C(=O)NCc2ccccc2)C(=O)C1c1ccccc1 (stereo not drawn)
selectivity index (reference: Vero IC50 over MCF7 IC50): 2.51

CC/C(=C\CC[C@H](C)C[C@@H](C)CC[C@H](O)[C@H](C)C(=O)CC(O)[C@H](C)[C@@H](C)OC(=O)C[C@@H](O)C1=C(C)C(=O)OC1=O)C(O)CC(=O)O (stereo partly drawn)
inhibition (cell growth or viability, MTT; 20 µM, 48 h): 8%

CC(=O)N[C@@H](CCCNC(=N)N)C(=O)N[C@@H](CCCNC(=N)N)C(=O)N[C@@H](CCCNC(=N)N)C(=O)N[C@@H](CCCNC(=N)N)C(=O)N[C@@H](CCCNC(=N)N)C(=O)N[C@@H](CCCNC(=N)N)C(=O)N[C@@H](CCCNC(=N)N)C(=O)N[C@@H](CCCNC(=N)N)C(=O)N[C@@H](CCCNC(=N)N)C(=O)N[C@@H](CCCNC(=N)N)C(=O)NCC(=O)N[C@@H](COP(=O)(O)O)C(=O)N1CCC[C@H]1C(=O)N[C@H](C(=O)N[C@@H](Cc1ccccc1)C(=O)O)[C@@H](C)O
G2/M cells (flow cytometry; 100 µM, 24 h, with: irradiation 15 Gy): 40.3 ± 1.8%

CC(=O)N1CCCC[C@H]1C(=O)NC(C)(C)C(=O)N1CCCC[C@H]1C(=O)NC(C)(C)C(=O)NC(C)(C)C(=O)N[C@@H](CC(C)C)C(=O)NCCC(=O)N[C@H](C)C(=O)NC(C)(C)C(=O)NC(C)(C)C(=O)N1CCCC[C@H]1C(=O)NC(C)(C)C(=O)NCC(=O)N[C@@H](CC(C)C)C(=O)NC(C)(C)C(=O)N[C@@H](CC(C)C)C[N+]1=C2CCCN2CCC1
GI50 (cell growth or viability, SRB; 48 h): 0.104 µM

CC(C)C[C@@H](NC(=O)[C@H](C)NC(=O)CNC(=O)[C@@H](NC=O)C(C)C)C(=O)N[C@@H](C)C(=O)N[C@@H](C(=O)N[C@H](C(=O)N[C@@H](C(=O)N[C@@H](Cc1c[nH]c2ccccc12)C(=O)N[C@H](CC(C)C)C(=O)N[C@@H](Cc1c[nH]c2ccccc12)C(=O)N[C@H](CC(C)C)C(=O)N[C@@H](Cc1c[nH]c2ccccc12)C(=O)N[C@H](CC(C)C)C(=O)N[C@@H](Cc1c[nH]c2ccccc12)C(=O)NCCO)[C@H](C)O)C(C)C)C(C)C
LC50 (sulforhodamine B; 48 h): > 5 µM
